Measurements from different studies.
Each line is one published result; not all experiments were run side by side. Values joined by “and” are separate records of one study, mostly repeats; a detail may differ. ± marks the error that the study gave.

SMILES	target or system	assay	system	setting	how to read	quantity	result
CC(=O)O[C@H]1C[C@@]2(C)[C@@H](C[C@@H](O)[C@H]3[C@@]4(C)CC[C@@H](O)[C@@H](C)[C@@H]4CC[C@@]32C)/C1=C(\CCC=C(C)C)C(=O)O		starch gel membrane permeability	Gram-negative envelope surrogate	200 µM, 10 min, pH 7.4		amount permeated	0.04 nmol
O=C(/C=C/c1ccc(O)c(O)c1)O[C@H]1[C@H](O)C[C@](O)(C(=O)O)C[C@H]1O			human plasma	mean		plasma concentration	177 nM
CCc1c(-c2ccccc2)c(-c2ccccc2)nn1-c1ccccc1-c1cccc(OCC(=O)O)c1			Sprague-Dawley rat, heart homogenate	oral, 10 mg/kg, 4 h		concentration	343 ng/mL and 665 ng/mL
CCCCCCCC(=O)c1c(O)cc(O)cc1CC(=O)OCC	COS-7			10 µM, 24 h, 0.1% DMSO, unit not given	reference: vehicle control	apoptotic cells	0.48 ± 0.16
NCc1cc2c(cc1F)C(=O)N(C1CCC(=O)NC1=O)C2 (centres unmarked)			cynomolgus monkey	oral, 0.3 mg/kg, 24 h		plasma concentration	not detected
O=C(/C=C/CCc1ccc(O)cc1)/C=C/c1ccc(O)cc1			nude mouse MCF7 xenograft	40 mg/kg, day 0		body weight	20.1 ± 1.17 g
Cc1cc(O)c2c(c1)C(=O)c1cc(O)cc(O)c1C2=O	HepaRG co-cultured with HK-2	MTT		16.67 µM, 24 h	reference: untreated control	cell viability	105 ± 17.9%
C[C@H]1CN(C(=O)CC#N)[C@]12CCN(c1ncnc3[nH]ccc13)C2			healthy adults, plasma	oral, 1.5 mg single dose, geometric mean		t1/2	2 h
O=C1CC[C@H](N2Cc3cc(N4CCN(CC5CCN(c6ccc([C@@H]7c8ccc(O)cc8CC[C@@H]7c7ccccc7)cc6)CC5)CC4)ccc3C2=O)C(=O)N1		item: Wound	human	oral, 200 mg, together with: dabigatran etexilate 75 mg		participants with adverse event	4.2%
CCO			human	concentration not given		number of treatment-related AEs	41
Cc1ccc(C(=O)N(CCCN)C(c2nc3snc(C)c3c(=O)n2Cc2ccccc2)C(C)C)cc1 (centres unmarked)		hypophosphataemia grade ≥3 (CTCAE)	human patients	intravenous, 10 mg/day		patients with adverse event	0%
Cc1c2oc3c(C)ccc(C(=O)N[C@@H]4C(=O)N[C@H](C(C)C)C(=O)N5CCC[C@H]5C(=O)N(C)CC(=O)N(C)[C@@H](C(C)C)C(=O)O[C@@H]4C)c3nc-2c(C(=O)N[C@@H]2C(=O)N[C@H](C(C)C)C(=O)N3CCC[C@H]3C(=O)N(C)CC(=O)N(C)[C@@H](C(C)C)C(=O)O[C@@H]2C)c(N)c1=O			children with cancer, plasma	dose not given, 5 min		minimum plasma concentration	64.7 µg/L
CC[C@H](C)CCCCC(=O)N[C@@H](CCN)C(=O)N[C@H](C(=O)N[C@@H](CCN)C(=O)N[C@H]1CCNC(=O)[C@H]([C@@H](C)O)NC(=O)[C@H](CCN)NC(=O)[C@H](CCN)NC(=O)[C@H](CC(C)C)NC(=O)[C@@H](Cc2ccccc2)NC(=O)[C@H](CCN)NC1=O)[C@@H](C)O			mild renal impairment, plasma	intravenous infusion, 0.75 mg/kg single dose over 1 h, arithmetic mean		AUC(0-last)	20000 ng·h/mL
COc1cc2c(c(OC)c1OC)C(=O)c1c(cc(C)c(O)c1OC)C2=O	HepaRG co-cultured with HK-2	MTT		33.33 µM, 24 h	reference: untreated control	cell viability	99.8 ± 7.69%
CN(C(=O)n1cnc(-c2cccnc2)c1)[C@H]1CC[C@H](O)CC1			Wistar rat, medulla oblongata	oral, 10 mg/kg of BIA 10-2474, 4 h, single dose		concentration	29.6 ± 7.5 ng/g
Cc1c(Cl)c(C)[n+]([O-])c(Cl)c1-c1noc(-c2cc(O)c(O)c([N+](=O)[O-])c2)n1			healthy Chinese subjects	oral, 25 mg, 4 days		TEAE incidence	13.3%
Cn1cc(Nc2nccc(-c3ccc4c(c3)CN(C3COC3)CC[C@H]4NC(=O)c3cn(C(C)(C)C)nn3)n2)cn1		item: NK cell count	human, clinical trial, whole blood	50 mg twice daily, follow-up		percent change from baseline	10.7%
Cc1cc(-c2nccc3c2ccn3CC(=O)Nc2ccc(-c3cnccn3)cn2)ccn1			human	20 mg once daily, multiple ascending dose		subjects with nasal discomfort	0%
Clc1ccc(C(c2c[nH]c3ccccc23)c2c[nH]c3ccccc23)cc1	COS-7			10 µM, 24 h, 0.1% DMSO, unit not given	reference: vehicle control	apoptotic cells	4.2 ± 0.13
O=C(O)Cc1cccc(O)c1			human plasma	median		plasma concentration	12100 nM
Cc1cc(C)c(CNC(=O)c2cc(Cl)c3c(c2C)O[C@@](C)([C@H]2CC[C@H](N(C)C)CC2)O3)c(=O)[nH]1		item: Hyperglycemia	human patients	oral, 200 mg once daily, 1 day onset day 14		patients with grade ≥3 TEAE	0%
O=C(O)[C@H]1O[C@@H](Oc2ccccc2O)[C@H](O)[C@@H](O)[C@@H]1O			human plasma	median		plasma concentration	150 nM
CC(C)(Sc1ccncc1-c1ccc(C#N)c2ccccc12)C(=O)O			human, plasma	oral, 2.5 mg once daily, together with: febuxostat 10 mg		AUC(0-24)	51 ng·h/mL

Some of these lines once more:
SMILES	target or system	assay	system	setting	how to read	quantity	result
Cc1c(Cl)c(C)[n+]([O-])c(Cl)c1-c1noc(-c2cc(O)c(O)c([N+](=O)[O-])c2)n1			healthy Chinese subjects	oral, 25 mg, 4 days		TEAE incidence	13.3%
Cn1cc(Nc2nccc(-c3ccc4c(c3)CN(C3COC3)CC[C@H]4NC(=O)c3cn(C(C)(C)C)nn3)n2)cn1		item: NK cell count	human, clinical trial, whole blood	50 mg twice daily, follow-up		percent change from baseline	10.7%
Cc1cc(-c2nccc3c2ccn3CC(=O)Nc2ccc(-c3cnccn3)cn2)ccn1			human	20 mg once daily, multiple ascending dose		subjects with nasal discomfort	0%
